Results of several laboratories.
Each line is one published result; not all experiments were run side by side. “And” joins repeats or separate records; there may be more than shown. ± gives the spread as reported.

| SMILES | target | test | system | setting | how to read | measurement | result |
| --- | --- | --- | --- | --- | --- | --- | --- |
| CS(C)(=O)=Nc1ccc(-c2ccc(-c3nc4cc(O[C@@H]5CO[C@H]6[C@@H]5OC[C@H]6O)[nH]c4cc3F)cc2)cc1 | Cacna1b (Rattus norvegicus, UniProt Q02294) | ligand displacement, radioligand |  | 10 µM |  | inhibition | -16% |
| O=C(N[C@@H]1c2ccccc2C[C@H]1N1CCCC1)c1ccc(-c2ccnc3[nH]ccc23)nc1 | PAK5 (Homo sapiens, UniProt Q9P286) | binding, competition with immobilised ligand |  | 3 µM |  | remaining binding | 1.6% |
| O=C1NC(=O)c2c1c1cc(F)c[n+]3c1c1c2c2cc(O)ccc2[n]1[Ru-4]312([N]=C=S)[S+]3CC[S+]1CC[S+]2CC3 (stereo not shown) | EEF2K (Homo sapiens, UniProt O00418) | enzyme activity |  | 100 nM, human enzyme, added: 10 µM ATP | baseline: untreated | remaining activity | 105% |
| Cn1cc(C(=O)Nc2ccccn2)c2ccccc21 | Genome polyprotein, 3C protease (rhinovirus B14, UniProt P03303) | protease activity, SAMDI-MS |  |  |  | Hill slope | 1.44 |
| COc1ccccc1-c1n[nH]c2nc(N[C@H]3CC[C@H](NS(=O)(=O)CC(C)C)CC3)ncc12 | protein kinase LINJ.27.0100 | bead competition pull-down | Leishmania extract | 10 µM | baseline: vehicle | relative captured amount | 0.58 |
| C[C@H](NCc1ccc(-c2ccc(C(F)(F)F)cc2)cc1)C(N)=O | SRC (Homo sapiens, UniProt P12931) | cell-free assay, competition with immobilised ligand |  | 1 µM |  | inhibition | 10% |
| CCCNC(=O)[C@H]1O[C@@H]1C(=O)N[C@H](C(=O)N1CCC[C@H]1C(=O)OCC1=C2C(C)=CC(C)=[N+]2[B-](C)(C)n2c(C)cc(C)c21)[C@@H](C)CC | Cathepsin B (CTSB, Homo sapiens, UniProt P07858) |  |  |  | baseline: light over dark | kinact/KI ratio | 760 |
| CN(C)[C@H]1C[C@@]23CC[C@@]4(O2)C(=CC[C@]2(C)[C@@H](c5ccc6ccncc6c5)CC[C@H]24)C=C3[C@@H](O)[C@@H]1O | PTK2 (Homo sapiens, UniProt Q05397) | ATP probe labelling, inhibitor, KiNativ profiling |  | 0.1 µM |  | inhibition | -15.9% |
| CN(C)CCCSC(=S)N1CCN(C(=O)/C=C/c2coc3ccccc3c2=O)CC1 | Nucleoprotein (N, Tomato spotted wilt virus, UniProt P25999, R94A/Y184A) | binding, microscale thermophoresis |  | 500 µM | dose series | MST response | 0.864 a.u. |
| F[B-](F)(F)c1cccc(/N=N/c2ccccc2I)c1.[K+] | Chymotrypsinogen A (Bos taurus, UniProt P00766) | enzyme activity, inhibitor |  | added: Suc-AAPF-AMC | baseline: Ki cis over Ki trans | switching factor | 2.6 ± 0.4 |
| O=C(N1CCCCC1)n1ccnn1 | Serine beta-lactamase-like protein LACTB, mitochondrial (Lactb, Mus musculus, UniProt Q9EP89) | probe labelling, inhibitor, competitive ABPP-SILAC, item: Lactb | mouse T cells | concentration not given, 4 h, in situ, single peptide | baseline: treated over DMSO, lower = more inhibition | SILAC ratio | 1.43 and 2.02 and 1.34 and 1.51 and 1.38 |
| CC(C)[C@H]1NC(=O)C[C@H]2/C=C/CCSSC[C@@H](NC1=O)C(=O)N[C@H](Cc1cccc3ccccc13)C(=O)NCC(=O)O2 | SIK1 (Homo sapiens, UniProt P57059) |  |  | 10 µM |  | inhibition | 4.2% |
| N[C@H](C(=O)N1CCCC1)C1CCN(c2nccc3c(-c4ncc(Cl)cc4Cl)cccc23)CC1 | 5-hydroxytryptamine receptor 4, isoform 5-HT4e (HTR4, Homo sapiens, UniProt Q13639) | functional response, agonist |  | 10 µM |  | response | 1% |

For quick reference, copied from above:
| SMILES | target | test | system | setting | how to read | measurement | result |
| --- | --- | --- | --- | --- | --- | --- | --- |
| COc1ccccc1-c1n[nH]c2nc(N[C@H]3CC[C@H](NS(=O)(=O)CC(C)C)CC3)ncc12 | protein kinase LINJ.27.0100 | bead competition pull-down | Leishmania extract | 10 µM | baseline: vehicle | relative captured amount | 0.58 |
